Measurements pooled from the literature.
A part holds a random share of what one study measured. Changes are numbered by the printed parent chain.

Series 1
Target: CCND2, cyclin fold, Cln2 fusion (human)
Technique: yeast growth competition, sequencing
Sample: yeast
Setting: weak parent motif
Relative to: not given
Reading: higher = stronger binding
Measurement: normalised enrichment score
Starting sequence: SLBP docking peptide (human); ARYKRKLLINDFG; partner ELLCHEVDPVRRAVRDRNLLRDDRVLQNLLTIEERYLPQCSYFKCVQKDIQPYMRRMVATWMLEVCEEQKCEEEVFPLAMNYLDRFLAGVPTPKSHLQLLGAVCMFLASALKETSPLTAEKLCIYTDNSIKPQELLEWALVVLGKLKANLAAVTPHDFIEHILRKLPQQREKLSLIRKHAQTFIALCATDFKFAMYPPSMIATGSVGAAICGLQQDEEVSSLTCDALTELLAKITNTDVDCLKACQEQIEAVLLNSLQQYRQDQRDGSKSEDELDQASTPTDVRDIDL
ARYKRPLLINDFG [K6P]: -0.043
ARYKRKLLCNDFG [I9C]: 0.326
ARYKYKLLINDFG [R5Y]: 0.138
ARYKRKLLINDKG [F12K]: 0.231

Series 2
Target: Histone acetyltransferase KAT6A, both winged helices, GST fusion (KAT6A, Homo sapiens, UniProt Q92794, residues 1-181)
Technique: protein binding microarray
Molecule type: double-stranded DNA, one strand shown
Sample: in vitro
Tested at: not given
Setting: 8-mer, flanks averaged, mean of 2 arrays, mostly near background
Relative to: not given
Reading: higher = stronger binding
Measurement: E-score
Residues (chain): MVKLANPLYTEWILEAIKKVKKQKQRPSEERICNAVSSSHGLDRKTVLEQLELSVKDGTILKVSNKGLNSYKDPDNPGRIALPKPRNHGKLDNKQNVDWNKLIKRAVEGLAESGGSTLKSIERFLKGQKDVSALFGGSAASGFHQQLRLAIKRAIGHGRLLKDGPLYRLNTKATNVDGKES
CGTTTTCC: 0.085
CTGCACCC: -0.103
CCGACGAC: 0.0939
AAATGTGC: 0.0597
GTGCTACA: -0.277

Series 3
Target: RING finger protein unkempt homolog, zinc fingers 1-6, GST-SBP tag (UNK, Homo sapiens, UniProt Q9C0B0, residues 30-357)
Sequence of UniProt Q9C0B0 (30-357, looked up): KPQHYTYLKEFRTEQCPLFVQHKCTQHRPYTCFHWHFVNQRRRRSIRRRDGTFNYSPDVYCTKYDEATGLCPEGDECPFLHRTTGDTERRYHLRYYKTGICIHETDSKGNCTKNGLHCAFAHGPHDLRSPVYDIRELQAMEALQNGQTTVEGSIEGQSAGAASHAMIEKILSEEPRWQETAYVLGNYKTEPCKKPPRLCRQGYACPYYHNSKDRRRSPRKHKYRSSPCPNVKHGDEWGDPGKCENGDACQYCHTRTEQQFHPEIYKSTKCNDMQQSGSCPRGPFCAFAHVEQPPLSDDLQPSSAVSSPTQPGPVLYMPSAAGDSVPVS
Technique: RNA Bind-n-Seq
Molecule type: RNA
Sample: in vitro
Tested at: not given
Setting: RNA with constant flanks, human-mouse chimeric sites, ends assumed
Relative to: input RNA pool
Reading: higher = stronger binding
Measurement: bound/input enrichment
Constant ends, left off below: GGGAGUUCUACAGUCCGACGAUC … CAACAGAGGAUUGAGCAUCA
GGACAUCUGUCAAAUUGUAUUUCCCGUGUGAAACAAGUGAACACUCUGAUACACUUCAUUUAGUUGUACAUCUGUAUGAUAGAGAAAUGUAAAUAUGUUAAUCCAAGCAAUGUGUCACUU: 0.31 ratio
CCCCAAUACCAUUUGCAGGUCUGGAACCUGCAUUCUUUUUUUAAAAAACAUGUAUACAUUUUAGGGCUGUAGAUUUAUUUUCCUGGUUUCUUUUCCAAUUGCUGACUUUUGAGCACAGAA: 1.78 ratio
AGAUUCCCCCUCCUGAGACCUCCUCCGAAGUUGGAGUCUCUUAUAGAUGCCUCAUCCCCUGUUAGCGUUUUGGUCUGGACCACCCAGCCUUGGACAAUUCCCGCCAACCAGGCAAUUUGC: 0.434 ratio
GUUGCCAGGUUCCGGUGGGCCUCCAUCCGGUUCUCUCCUGAGCUACGUGUCUCUACGCUCUCAAUCCGCCAUCCAACAAACAUGGAUCAGGUAAUGCAGUUUGUGGAGCCCAGCCGGCAG: 0.123 ratio
UAAGUCCUGUGCCAGCACUUCGCUCAUAAAGUUUUAAAUUCAAGAAAAAUAGUGUUUAUCUUUAGAAUAUUGUAUCCAAUACUUUGCCUAGUAUGUAACUCACUCUUACUGAUAAUAAAA: 24 ratio
AAAGAGAAAGCUAAAACAACUGAUUGAAAGAGGAUUGGCAAAGAGAAUUUCAUAGAGAAACUAGGAUUUAUUAGCAAACAUGAGUUAUAUUCCAGAGCGUCUCAGAAACCCCAGCCAAAC: 3.25 ratio
CUGGCACUCUAUCAGAUAUAUUAAUUUUUUAAUGUAGAUGUAAUUUUAAAAAUGAAUGGCUACUUUACACGUUUAACUAGGGUUUUACUACAUAUGUGUACAUAUGUAUAUGUAUUUAUA: 7.55 ratio

Mixed results
PhoQ, residues 284 288 289 292 302 303 ASASEQ — fold induction (PhoP, residues 12 14 15 18 19 IFFTR (Escherichia coli, UniProt P23836); Sort-seq, item: YFP reporter; E. coli; PhoQ-PhoP variant library, together with: 10 µM Mg2+; relative to: high Mg2+ state, higher = stronger signaling): 15.3

Excerpt of the above (series 2):
CTGCACCC: -0.103
CCGACGAC: 0.0939
AAATGTGC: 0.0597
